Assay results collected from several papers.
Compare with care: the assays were run in different laboratories. ± gives the spread as reported.

COC(=O)[C@@H]1[C@H]2CC[C@@H](C[C@@H]1O)N2C
Cmax (LC-MS/MS; Sprague-Dawley rat, whole blood; intraperitoneal, 20 mg/kg of cocaine): 121 ± 7.16 ng/mL

C=CC[N+]1([C@H]2C[C@H]3[C@@H]4CC[C@H]5C[C@H](O)[C@@H](N6CCOCC6)C[C@]5(C)[C@H]4CC[C@]3(C)[C@H]2OC(C)=O)CCCC1
Cmax (Sprague Dawley rat, plasma; intravenous, dose not given, added: sugammadex 5 mg/kg): 242 ng/mL

CN1[C@H]2CC[C@@H]1[C@@H](C(=O)O)[C@@H](OC(=O)c1ccccc1)C2
Cmax (LC-MS/MS; Sprague-Dawley rat, whole blood; intraperitoneal, 20 mg/kg of cocaine): 2170 ± 101 ng/mL

CC(=O)c1c([O-])cc(C)oc1=O.[Na+]
Cmax (Wistar rat, male, serum; oral, 200 mg/kg, no CYP inhibitor): 220000 ± 17400 ng/mL

O=C(O)CCC(CP(=O)(O)O)C(=O)O (stereo not shown)
Cmax (male Wistar rat, plasma; ip, 100 mg/kg): ~1200 µM

CCN1C[C@]2(COC)[C@H](O)C[C@H](OC)[C@@]34[C@@H]5C[C@@]6(O)[C@H](OC(=O)c7ccccc7)[C@@H]5[C@@](OC(C)=O)([C@@H]([C@H](OC)[C@H]23)[C@@H]14)[C@@H](O)[C@@H]6OC
Cmax (Sprague-Dawley rat, plasma; oral, dose not given, in PCW extract): 589 ± 163 ng/mL

C#Cc1ccc2c(c1)C(c1ccccn1)=NCc1c(-c3cnco3)ncn1-2
Cmax (Sprague Dawley rat, brain; oral, 2 mg/kg, cassette dosing): 0.678 µM

COC[C@@]12CC[C@H](OC)[C@]34C(C([C@H](OC)[C@H]13)[C@]1(OC(C)=O)[C@H]3[C@@H](OC(=O)c5ccccc5)[C@](O)(C[C@H]34)[C@@H](OC)[C@@H]1O)N(C)C2
Cmax (Sprague-Dawley rat, plasma; oral, dose not given, in PCW extract): 441 ± 97.2 ng/mL

CC(=O)O[C@H]1C=C[C@H]2[C@H]3Cc4ccc(O)c5c4[C@@]2(CCN3C)[C@H]1O5
Cmax (LC-MS/MS; male Sprague-Dawley rat, whole blood; intraperitoneal, 10 mg/kg of heroin): 1110 ± 88.3 ng/mL

COC[C@]12CN(C)[C@@H]3[C@@H]4[C@H](OC)[C@H]1[C@@]3([C@@H](OC)C[C@H]2O)[C@@H]1C[C@@]2(O)[C@H](OC(=O)c3ccccc3)[C@@H]1[C@]4(OC(C)=O)[C@@H](O)[C@@H]2OC
Cmax (Sprague-Dawley rat, plasma; oral, dose not given, with NADES in PCW extract): 79.8 ± 21 ng/mL

COC(=O)[C@H]1[C@@H](OC(=O)c2ccccc2)C[C@@H]2CC[C@H]1N2C
Cmax (LC-MS/MS; Sprague-Dawley rat, male, whole blood; intraperitoneal, 20 mg/kg): 704 ± 43.4 ng/mL

Cc1ccc(S(=O)(=O)Nc2c(N[C@H]3CC[C@H](NC(=O)Nc4ccc(F)c(Cl)c4)CC3)c(=O)c2=O)cc1
Cmax (rat, plasma; oral, 20 mg/kg): 0.03 µM

CC(=O)c1c(C)c2cnc(Nc3ccc(C4CCN(CCS(C)(=O)=O)CC4)cn3)nc2n(C2CCCC2)c1=O
Cmax (Sprague-Dawley rat, female; oral, 60 mg/kg, day 28, repeated dosing 4 weeks): 6430 ng/mL

A few entries again:
O=C(O)CCC(CP(=O)(O)O)C(=O)O (stereo not shown)
Cmax (male Wistar rat, plasma; ip, 100 mg/kg): ~1200 µM

COC[C@]12CN(C)[C@@H]3[C@@H]4[C@H](OC)[C@H]1[C@@]3([C@@H](OC)C[C@H]2O)[C@@H]1C[C@@]2(O)[C@H](OC(=O)c3ccccc3)[C@@H]1[C@]4(OC(C)=O)[C@@H](O)[C@@H]2OC
Cmax (Sprague-Dawley rat, plasma; oral, dose not given, with NADES in PCW extract): 79.8 ± 21 ng/mL
